Assay results collected from several papers.
Parts stem from different laboratories: compare values within a part only. Changes are numbered by the printed parent chain.

Study 1
Target: RING finger protein unkempt homolog, zinc fingers 1-6, GST-SBP tag (UNK, Homo sapiens, UniProt Q9C0B0, residues 30-357)
Sequence of UniProt Q9C0B0 (30-357, looked up): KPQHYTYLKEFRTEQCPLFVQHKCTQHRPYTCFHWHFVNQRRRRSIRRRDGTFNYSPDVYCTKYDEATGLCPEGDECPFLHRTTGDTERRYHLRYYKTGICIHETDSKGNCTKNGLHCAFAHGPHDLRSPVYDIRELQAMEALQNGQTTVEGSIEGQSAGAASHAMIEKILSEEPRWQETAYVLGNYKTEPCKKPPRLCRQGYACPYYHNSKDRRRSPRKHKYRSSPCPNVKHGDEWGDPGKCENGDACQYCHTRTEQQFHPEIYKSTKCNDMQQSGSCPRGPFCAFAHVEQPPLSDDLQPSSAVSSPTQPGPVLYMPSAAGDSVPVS
Method: RNA Bind-n-Seq
Molecule type: RNA
Sample: in vitro
Concentration: not given
Setting: RNA with constant flanks, human-mouse chimeric sites, ends assumed
Reference: input RNA pool
Reading: higher = stronger binding
Shared flanks, not repeated: GGGAGUUCUACAGUCCGACGAUC … CAACAGAGGAUUGAGCAUCA
Sequence	bound/input enrichment [ratio]
GCUGGAUCUUCUAAGUACCAGUGGGGCAUUAUGAAAUCCCUUGGGCUCUCUGAUGACGACAUAGUGAAGUUUUCUGAAGCAGAGCACUGGCUUGAUUAUUUCCCACCACUGGCCGUUCAG	0.17
CCAAUUGUGGAGCAGUACUUGAAGACAAAGAAAAAUUCUAGUCAUUUAAUCAUGAAAUACAUUAGCUGCCGCCUGCUGACACUCAUCAUUAUACUGUUAGCGUGUAUCUACCUGGGCUAU	0.823
ACUCUUGACUCUUUCCAUUCUCGUCCCUUUCCUCUUGAUAUUCAAGGCCAUGAAUCCCAAAAUAACAGUCUUAGUGGCUAGCACCCAAACAGAGGUGGAAUAAAUCCACCCCAGUGUCUC	0.471
UUGUCGAAGACUCAACGAAAGACUCCAACGGUUAUUCAUAAACAUUACCAAAUACAUCGGAUUCGACAUUUUUAUAUGAGAAAAGUCAAAUUUACUCAACAGAAUUACCAUGACAGACUG	0.25
CAUGUAUCUGCAGUACUUGAUGUGGACUACUCUCCCACUGGGAAGGAAUUUGUGUCUGCUAGUUUCGAUAAGUCUAUUAGAAUCUUUCCUGUGGACAAGAGCCGAAGCAGGGAAGUGUAU	1.29
UUACUUUUGACUCCCUGGGUCAAGUUCCUGUGGGAGUCAUACAGGCAGUGUUUGGACCUUCUUCGAAACAAUUCUAGAGUAGAGCGCCUUUACCAUGAUAUCGCCCAACAAGCUUUCAAA	0.159

Study 2
Target: ABI1, truncated, D143A, DHFR fusion (Arabidopsis thaliana)
Method: DHFR PCA, deep sequencing
Sample: yeast
Setting: methotrexate growth selection, single substitutions
With: (+)-ABA 17 µM
Reference: wild-type fitted maximum
Reading: higher = stronger binding
Parent: PYL1, truncated, DHFR fusion (Arabidopsis thaliana); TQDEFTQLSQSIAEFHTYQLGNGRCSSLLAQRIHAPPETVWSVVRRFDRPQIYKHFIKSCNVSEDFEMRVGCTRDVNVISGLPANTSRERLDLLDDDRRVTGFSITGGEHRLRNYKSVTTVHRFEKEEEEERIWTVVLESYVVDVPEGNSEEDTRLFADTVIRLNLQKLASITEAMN
Variant	relative binding score [%]
D97Q	92
Q51W	47.8
A13K	88.3
V100M	70.7
R99A	38.9
T135I	-6.05
E130S	94.1
T73P	5.59
G108F	-4.6
R46Y	3.25
E67L	65
Y18R	57.9
T160M	73.8
F5M	87.7
E38L	30

Study 3
Target: CCND3, cyclin fold, Cln2 fusion (human)
Method: yeast growth competition, sequencing
Sample: yeast
Setting: weak parent motif
Reference: not given
Reading: higher = stronger binding
Parent: MASTL docking peptide (human); PMIAKNLMCELDE
Variant	normalised enrichment score
M2C	-0.0382
N6C	0.0459
N6Y	0.119
E10Q	0.264
A4E	-0.228
K5T	-0.166
I3T	0.0557
M8L	-0.048
L7R	-0.0668
D12G	-0.0925
L11Q	-0.228
I3A	-0.000948
I3S	0.0563
D12P	-0.142
M2T	0.0464
C9G	-0.0658
M8H	-0.108
L11Y	-0.102
M2E	0.0689
I3W	-0.193

Study 4
Target: FOXO3, forkhead domain (mouse, UniProt Q9WVH4, residues 31-263)
Sequence of UniProt Q9WVH4 (31-263, looked up): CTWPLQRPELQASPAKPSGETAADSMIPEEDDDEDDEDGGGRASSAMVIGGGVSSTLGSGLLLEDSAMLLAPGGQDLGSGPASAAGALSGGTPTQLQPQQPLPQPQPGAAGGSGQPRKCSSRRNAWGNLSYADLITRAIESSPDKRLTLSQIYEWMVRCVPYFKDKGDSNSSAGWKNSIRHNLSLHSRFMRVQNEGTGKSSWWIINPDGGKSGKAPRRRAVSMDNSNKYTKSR
Method: protein-binding microarray
Molecule type: hairpin DNA
Sample: in vitro
Concentration: not given
Setting: whole hairpin DNA, median over replicate spots
Reference: not given
Reading: higher = stronger binding
Sequence	median fluorescence
GAGGCCACGTAACCAACGCCTCCTGGCGTTGGTTACGTGGCCTCACACTC (5mC at 8)	4280 a.u.
GAGGCCCGGTAAACAACGCCTCCTGGCGTTGTTTACCGGGCCTCACACTC (5mC at 7 37)	5720 a.u.
GAGGCCATGCAAGCAACGCCTCCTGGCGTTGCTTGCATGGCCTCACACTC	4600 a.u.
GAGGCCACGTAACCAACGCCTCCTGGCGTTGGTTACGTGGCCTCACACTC (5mC at 8 36)	4250 a.u.
GAGGCCATGTACACAACGCCTCCTGGCGTTGTGTACATGGCCTCACACTC (5mC at 12)	4600 a.u.
GAGGCCAAGCAAACAACGCCTCCTGGCGTTGTTTGCTTGGCCTCACACTC	5220 a.u.
GAGGCCATGCACACAACGCCTCCTGGCGTTGTGTGCATGGCCTCACACTC (5mC at 12)	4570 a.u.
GAGGCCATGTAACGAACGCCTCCTGGCGTTCGTTACATGGCCTCACACTC	4060 a.u.
GAGGCCATGCACGCAACGCCTCCTGGCGTTGCGTGCATGGCCTCACACTC (5mC at 32)	4840 a.u.

For quick reference, copied from above (study 2):
Variant	relative binding score [%]
Q51W	47.8
A13K	88.3
V100M	70.7
R99A	38.9
T135I	-6.05
E130S	94.1
